Results of several laboratories.
Parts stem from different laboratories: compare values within a part only. Changes are numbered by the printed parent chain.

Series 1
Target: ABI1, truncated, D143A, DHFR fusion (Arabidopsis thaliana)
Method: DHFR PCA, deep sequencing
Medium: yeast
Setting: methotrexate growth selection, single substitutions
With: (+)-ABA 4.8 µM
Reference: wild-type fitted maximum
Direction: higher = stronger binding
Starting sequence: PYL1, truncated, DHFR fusion (Arabidopsis thaliana); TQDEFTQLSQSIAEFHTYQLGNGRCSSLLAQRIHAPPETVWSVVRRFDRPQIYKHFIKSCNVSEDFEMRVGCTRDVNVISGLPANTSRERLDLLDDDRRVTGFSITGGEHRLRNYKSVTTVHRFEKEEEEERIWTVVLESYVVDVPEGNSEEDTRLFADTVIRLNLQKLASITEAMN
Variant | relative binding score
G107D | 38.3%
V137P | 7.09%
D153K | 2.62%
D48G | 5.85%
V118E | 0.445%
D159V | -3.84%
G81A | 3.43%
H110D | 14.1%
E174C | 28.5%
R88P | 0.99%
D144I | -19%
Y18N | 31.9%
F157V | 16.6%
Q51F | 23.5%
N22E | 80.1%

Series 2
Target: Histone acetyltransferase KAT6A, both winged helices, GST fusion (KAT6A, Homo sapiens, UniProt Q92794, residues 1-181)
Method: protein binding microarray
Form: double-stranded DNA, one strand shown
Medium: in vitro
Concentration: not given
Setting: 8-mer, flanks averaged, mean of 2 arrays, mostly near background
Reference: not given
Direction: higher = stronger binding
Target sequence (chain): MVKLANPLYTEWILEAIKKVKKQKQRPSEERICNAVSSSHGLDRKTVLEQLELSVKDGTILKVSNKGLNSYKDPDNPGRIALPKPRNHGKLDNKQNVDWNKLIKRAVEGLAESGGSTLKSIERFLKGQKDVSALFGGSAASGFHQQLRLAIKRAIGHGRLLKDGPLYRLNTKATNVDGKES
Sequence | E-score
AGATTGTA | -0.246
ACCTCTCT | -0.322
ACAGACGG | 0.0529
CACCACTG | -0.152
AAGCCCGG | 0.19
AAATTTTC | -0.00167
CCGACACC | 0.181
GGAGGTAC | -0.0603
GCCCCTCC | -0.103
AGGACTAC | -0.0473
ACACCCCA | -0.23
ATTACGGG | 0.137
CCATCCAC | -0.17
TAAGACTA | -0.138
GTGCGAAC | 0.107
CGTCATCC | 0.135
GATCAGCA | -0.127
CTCACGGC | 0.322
GGCATGAC | 0.113
CGTCAAAC | 0.183
AGATCACT | -0.125
GATTTCCC | -0.00177
GCCAGAGA | -0.0761
ACAGGTCG | -0.0208
ATTCTTGG | -0.0407

Series 3
Target: RNA binding protein fox-1 homolog 2, RRM domain, GST-SBP tag (RBFOX2, Homo sapiens, UniProt O43251-10, residues 100-194)
Method: RNA Bind-n-Seq
Form: RNA
Medium: in vitro
Concentration: 365 nM
Setting: natural RNA segment, single round, ends assumed
Reference: no-protein control
Direction: higher = stronger binding
Shared flanks, not repeated: GGGAGUUCUACAGUCCGACGAUC … UGGAAUUCUCGGGUGCCAA
Construct (chain): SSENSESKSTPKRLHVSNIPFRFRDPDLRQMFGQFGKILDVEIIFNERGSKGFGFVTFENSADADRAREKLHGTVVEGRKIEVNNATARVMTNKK
Sequence | RBNS enrichment (R)
GUUGUGGGACAGAUGGAUUUUAUCAUUGAAUGGCUCUUCUCAGUGUAUGGAUACUGGGUUGGGCCUUGGGUUUUACUCACUUUCAGUAUAGCUUGCCAGUAUUGUUAAGG | 2.65
UUAGCCAGUCUGCUGUCCUGAAACCCAGAAGUGAUGGAGAGAAACCAACAAGAGAUCUCGAACCCUGUCUAGAAGGAAUGUAUUUGUUGCUAAAUUUCGUAGCACUGUUU | 0.676
AUCAAACUAUUCCGUGCCGUGGAUGUUUUCAUUGCCAACGAGGGUGUAAUGAUUUGCUUCUGCACCUUGGUCUAGUGCUGGUUUGUGGUGUUUUUGUUUGUAAAUUAGCC | 0.737
GUGUCCGGGUGCUCAGCUCCUGGGUCCCAGGGCAGUGGGACAGCUCCCAGGCUCUUCUCAUCAGAGACUUCAGUUUGGGUGGGGAGUCUGCAGGUCAGGGAAGGUUCUGG | 0.601
CUGUCUUGAGCUGGGCGUCUCUUUAAUUACUGCCUCUGCCCCGGACCCUUCUCUCUAGACUUGGGAAGCACUCCUUCCUAGAAGCCACACAUCACUCCAAGGCUCAGCUG | 0.318
UUUAUAGCAAAGUUAUCUUAAAUAUGAAUUCUGUUGUAAUUUAAUGACUUUUGAAUUACAGAGAUAUAAAUGAAGUAUUAUCUGUAAAAAUUGUUAUAAUUAGAGUUGUG | 0.402
AAUAAAUGAAGAAAUACAUUUUAAGUAGAUAUCAGUUACUUUUAAUUUGUAUGGUAAAUAUAUACAUAGGUCCAUUUCAGAAAAAAAAUCAUGAUUGUAAAGGGAAUAUA | 0.497
CAAGAGGAAACUUGAUAAUUUUAAACUCUUUUCCCCCUUUACCGUCAUCUAUCCUCUAUCUGUAUCAAGCUCACUGCGGAUCCUGCUGUAAAACUGGUGGGUAGCUGGGC | 0.279
GAUUAUGUGCUUGACCACUGCCUUUUAAAACUUUAAAUUAAAUAAAACAUUGGGGAUGAUUCAAUUUAGCCAUCUGUGUGUGUGUUUCUUUAUGGAUACGUGGUCUAAGG | 0.873
CUGGAGCCUGGCAGCCACAGACAUCAUACACAGCCUCUGAAGCUUAUUAAAGUAUGUUCACCCACUGGAUGAAAGGCUCUGUGCAGAGAGGGGAGGAACUGGGCCCUUGC | 0.735
CUGGGCAUCUUCUACUAAUGGCCUCGGCUUCCCUCUUUCCAUCCAGGAAUCAGUCCUGUAGCUUGGGUGCCUCCUUAUUUGUUAAUUAGUGGCUUUUCAUGUUCUCCUUU | 0.34
CUGGGAGGAGGCUGAGGCCUGUGAAGCCAAACAAUAUGCUCCUGCCUUGCACCUCCAAUAGGUUUUAUUAUUUUUUUUAAAUUAAUGAACAUAUGUAAUAUUAAUAGUUA | 0.807

Series 4
Target: RING finger protein unkempt homolog, zinc fingers 1-6, SBP tag (UNK, Homo sapiens, UniProt Q9C0B0, residues 30-357)
Sequence of UniProt Q9C0B0 (30-357, looked up): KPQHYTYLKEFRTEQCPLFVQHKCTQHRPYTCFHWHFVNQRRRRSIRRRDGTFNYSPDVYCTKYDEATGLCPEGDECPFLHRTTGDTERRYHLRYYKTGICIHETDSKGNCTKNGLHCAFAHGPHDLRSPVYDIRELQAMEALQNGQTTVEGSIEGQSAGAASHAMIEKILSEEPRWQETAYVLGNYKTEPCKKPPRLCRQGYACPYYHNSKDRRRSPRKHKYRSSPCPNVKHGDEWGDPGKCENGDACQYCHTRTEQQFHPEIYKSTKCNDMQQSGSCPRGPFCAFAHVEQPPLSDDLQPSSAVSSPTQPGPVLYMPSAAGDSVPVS
Method: RNA Bind-n-Seq
Form: RNA
Medium: in vitro
Concentration: 100 nM
Setting: RNA with constant flanks, vertebrate orthologous sites, ends assumed
Reference: input RNA pool
Direction: higher = stronger binding
Shared flanks, not repeated: GGGAGUUCUACAGUCCGACGAUC … CAACAGAGGAUUGAGCAUCA
Sequence | bound/input enrichment [ratio]
GCAGUGAAAAAGCAGCCCUUCUCCCAGCCCCUUUUUCACUAGGAGAUACAAACGUUACCAUAGAAGAGCAAUUAAACUCAAUAAAUUUAUCUUUUCAGGAUGAUCCAGACUCCAGUACCA | 1.5
UCACUCUACUCUUGUUUUGGAAAUGGUACAAAAUACCUAAGGUGAAAUCCUGGCCCCAUUGAAGUCAAUGGGAGUUUUGUGGUGGACUUCAAUGGAGCUGGGAUUUCACAACUAGUCAUU | 1.46
UAAGUGCACGAGCGUCUGCUCACUCCAGAGCGCCUACACUGCUCAUCAUGUGUGUCAUCAUGUGUACACACCCGGUCCCCAAACACAGCGGUGUAGAUUCAAAGGGACACCGAUGCUUCC | 0.253
GUGUUGUUUGGUACAGGACCUCCUCUGUACUCCUUUGUGGUUAUAAAGCAAUUAGCAAAACGGCUUACAUUUGUAUUUAUUUUCUAUUCCAUACUUUGCCCUGCCUCAUGUUUUUUGUUU | 0.59
AUUUCAAAUGUAGUUAGUUAUAUUUAAUGACCUCAUUCCUGAGUUCCUUUUUCAUUAAUGUAGCAUUCAUUUAUUUCUACUUGCUGUUUUAAUAAUAUGAAUAAAUAGAAGAUCUGUGCU | 0.401
AGGGAGAAGAGCUCACAAACUCAAAGGGAAACUAUUAAAGAUUUCCUAAUAGUUAAAAGCUAGGAAAGAUUAGGACAACUUUACAAAUGAGCAUUAAAAAGAAAAGGGCUACGGAAACCA | 0.895
CAUCUCUCAUUUUAUAUGUCCAGAAAUGGCUUUGAAUUUUAAGCAAUUACUAGUUUUAAUUAGCUCUGCCCUCAUGAAGUAUUAUUAUAAUUCACCAUAAACAGCUAUCUGUCUGAAUUA | 1.12

Series 5
Target: Prothrombin, mature alpha-thrombin (F2, Homo sapiens, UniProt P00734)
Method: aptamer microarray, sandwich
Form: DNA with 2'F-ANA
Medium: in vitro
Concentration: 200 nM
Setting: whole 15-mer aptamer, many near background
With: Cy3 exosite-II aptamer, 400 nM
Direction: higher = stronger binding
Sequence: GGTTGGTGTGGTTGG
Modification | mean fluorescence intensity [a.u.]
2'F-ANA at 1 2 5 6 7 8 9 10 13 14 15 | 67.5
2'F-ANA at 2 3 5 8 9 15 | 115
2'F-ANA at 1 4 6 7 10 11 12 13 15 | 49.9
2'F-ANA at 2 3 4 5 7 8 10 11 | 50.9
2'F-ANA at 4 8 9 10 12 15 | 129
2'F-ANA at 3 6 11 15 | 812
2'F-ANA at 1 4 5 8 10 13 14 15 | 45.4
2'F-ANA at 1 2 5 6 8 14 | 79.4
2'F-ANA at 1 2 3 4 5 6 8 14 | 46
2'F-ANA at 3 6 11 12 13 14 | 514
2'F-ANA at 2 3 4 5 6 8 12 14 | 79.5
2'F-ANA at 1 4 5 7 8 9 10 11 12 13 | 48.4
2'F-ANA at 2 4 5 9 10 12 13 | 44.9
2'F-ANA at 1 2 3 4 6 8 13 15 | 150
2'F-ANA at 2 3 4 7 9 10 12 13 14 | 195
2'F-ANA at 3 4 6 7 9 10 11 12 14 | 174
2'F-ANA at 1 2 3 7 8 9 10 11 13 14 | 55.2
2'F-ANA at 1 4 7 8 9 10 11 12 13 14 | 52.5
2'F-ANA at 2 6 8 9 13 | 328
2'F-ANA at 2 4 7 8 9 10 13 15 | 83.5
2'F-ANA at 3 4 5 6 7 8 9 12 | 212
2'F-ANA at 1 3 4 5 6 7 8 11 15 | 58.9
2'F-ANA at 1 3 5 6 7 13 14 | 96.5

Series 6
Target: Sal-like protein 4, full length isoform B (SALL4, Homo sapiens, UniProt Q9UJQ4-2, residues 1-616)
Method: universal PBM
Form: double-stranded DNA, one strand shown
Medium: in vitro
Concentration: not given
Setting: 8-mer, flanks averaged, mean of replicates
Direction: higher = stronger binding
Sequence | E-score
CAGTCAAG | -0.104
CAACACGG | -0.159
GGGGTACC | -0.305
CTTCCGGC | -0.15
GATTAAGA | 0.175
GCTTCGAA | -0.0889
CATTGCGG | -0.152
ACCCCTGG | -0.351
AAGAACTG | -0.0443
ATTATACC | 0.311
AAGATCAG | -0.146
AAATTGTT | 0.352
AATAGACT | 0.123
AGTTGACG | -0.00323
CTAACTGC | -0.158
CCTCAGCA | -0.285
CGTCACAC | -0.178
ACGCATAC | 0.0875
CGTGCGAC | -0.186
ACGACCAG | 0.0147
CTTCCGAA | -0.027
CATATCTA | 0.351
CAGGTAAG | 0.0449
AATAGGCG | 0.127
ACCGGGCT | -0.272

For quick reference, copied from above (series 5):
Modification | mean fluorescence intensity [a.u.]
2'F-ANA at 3 4 5 6 7 8 9 12 | 212
2'F-ANA at 1 4 7 8 9 10 11 12 13 14 | 52.5
2'F-ANA at 1 2 3 4 5 6 8 14 | 46
2'F-ANA at 1 2 3 7 8 9 10 11 13 14 | 55.2
2'F-ANA at 4 8 9 10 12 15 | 129
2'F-ANA at 1 3 5 6 7 13 14 | 96.5
2'F-ANA at 2 3 5 8 9 15 | 115
2'F-ANA at 2 3 4 5 6 8 12 14 | 79.5
2'F-ANA at 2 4 7 8 9 10 13 15 | 83.5
2'F-ANA at 1 4 6 7 10 11 12 13 15 | 49.9
